Results collected from several papers.
Compare with care: the assays were run in different laboratories. “And” joins repeats or separate records; there may be more than shown. ± marks the error that the study gave.
Chain of UniProt Q9Y2K6 (whole entry, looked up): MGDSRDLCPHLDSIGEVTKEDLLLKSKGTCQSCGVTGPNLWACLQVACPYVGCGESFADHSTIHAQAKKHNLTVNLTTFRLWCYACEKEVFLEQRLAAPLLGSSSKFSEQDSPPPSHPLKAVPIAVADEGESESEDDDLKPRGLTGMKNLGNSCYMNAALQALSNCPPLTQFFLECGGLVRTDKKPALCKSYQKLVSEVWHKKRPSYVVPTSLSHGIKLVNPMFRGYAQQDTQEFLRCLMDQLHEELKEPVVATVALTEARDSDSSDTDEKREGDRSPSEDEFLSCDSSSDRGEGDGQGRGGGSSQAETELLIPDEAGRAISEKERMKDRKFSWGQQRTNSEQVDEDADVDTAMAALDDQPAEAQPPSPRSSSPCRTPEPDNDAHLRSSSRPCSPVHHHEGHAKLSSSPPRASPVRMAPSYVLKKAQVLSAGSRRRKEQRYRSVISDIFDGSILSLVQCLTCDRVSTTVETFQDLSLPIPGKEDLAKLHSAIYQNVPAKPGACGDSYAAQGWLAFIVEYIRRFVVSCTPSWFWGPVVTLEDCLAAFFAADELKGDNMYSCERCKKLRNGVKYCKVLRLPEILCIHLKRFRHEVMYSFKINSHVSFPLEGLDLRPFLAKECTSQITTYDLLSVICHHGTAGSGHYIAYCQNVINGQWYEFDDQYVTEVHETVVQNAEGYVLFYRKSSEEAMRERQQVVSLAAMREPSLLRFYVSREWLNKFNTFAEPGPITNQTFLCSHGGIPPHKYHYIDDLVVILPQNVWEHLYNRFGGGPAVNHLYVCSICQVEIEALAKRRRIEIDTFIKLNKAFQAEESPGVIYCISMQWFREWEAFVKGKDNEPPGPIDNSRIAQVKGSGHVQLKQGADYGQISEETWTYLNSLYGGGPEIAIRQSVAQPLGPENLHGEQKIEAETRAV
Chain of UniProt Q70CQ1 (whole entry, looked up): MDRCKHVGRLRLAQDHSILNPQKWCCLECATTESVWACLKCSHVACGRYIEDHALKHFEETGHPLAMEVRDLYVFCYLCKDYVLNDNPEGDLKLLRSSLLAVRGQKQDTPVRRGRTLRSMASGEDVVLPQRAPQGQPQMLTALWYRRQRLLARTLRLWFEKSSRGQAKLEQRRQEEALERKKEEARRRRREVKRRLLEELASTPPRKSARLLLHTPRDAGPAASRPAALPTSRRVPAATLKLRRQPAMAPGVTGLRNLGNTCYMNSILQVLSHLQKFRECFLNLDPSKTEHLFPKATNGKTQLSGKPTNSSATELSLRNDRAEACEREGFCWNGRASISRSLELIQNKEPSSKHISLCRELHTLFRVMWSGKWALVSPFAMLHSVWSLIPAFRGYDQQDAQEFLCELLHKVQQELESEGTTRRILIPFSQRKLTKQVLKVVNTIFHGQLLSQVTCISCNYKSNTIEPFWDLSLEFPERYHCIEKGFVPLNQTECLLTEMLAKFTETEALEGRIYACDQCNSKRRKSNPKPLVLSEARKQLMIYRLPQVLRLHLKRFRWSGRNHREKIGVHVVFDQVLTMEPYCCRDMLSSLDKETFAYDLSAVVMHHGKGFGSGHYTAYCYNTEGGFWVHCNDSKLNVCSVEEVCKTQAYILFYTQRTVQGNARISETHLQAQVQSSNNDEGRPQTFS

c1ccc(CN2CCCN3CCN(Cc4ccccc4)CCCN(CC2)Cc2cccc(n2)C3)cc1  intact complex (64Cu complex; 2 h, 70 °C, added: DOTA excess): 97%
CCOc1c([C@H](C)n2nc(C)c3c(N)ncnc32)cc(Cl)c(F)c1[C@@H]1CNC(=O)C1  observations with HR ≤100 bpm (ECG; previously treated B-cell malignancy patients; oral, 20 mg once daily, baseline below thresholds): 100%
C=CCn1c(=O)c2cnc(Nc3ccc(N4CCN(C)CC4)cc3)nc2n1-c1ccc2c(n1)[C@@](O)(CC)CC2  AUC(0-24) (female NOD/SCID mouse OVCAR-3 xenograft, plasma; oral, 100 mg/kg once daily, :4): 41900 ng·h/mL
N#Cc1c2n(c3c(=O)n(CC(=O)O)cnc13)CCCC2  Kd (Ubiquitin carboxyl-terminal hydrolase 49, ZnF-UBD domain (USP49, Homo sapiens, UniProt Q70CQ1)): > 1000 µM
COc1cc(C(=O)N2CCC3(CC2)CC(=O)c2c(cnn2C(C)C)C3)cc(-c2ccc(C(=O)O)cc2)n1  placebo-adjusted change from baseline (measured: direct LDL cholesterol; human, fasting serum; 30 mg every 12 h, day 13, adjusted geometric mean; reference: baseline and placebo): -2.2%
CCn1c(SCC(=O)Nc2cccc(OC)c2)nnc1-c1ccncc1  logD (octanol/buffer; pH 7.4): 1.96
Cc1cccc([C@H]2N[C@@H](c3ccc4ccccc4c3)COC2(C)C)c1  logD (shake-flask, 1-octanol/buffer; pH 7.4): > 4.7
COc1ccc2[nH]cc(CCNC(=O)Nc3ccc(Cl)c(Cl)c3)c2c1  logD (octanol/buffer; pH 7.4): 5.03
Cc1c([C@H]2COC[C@@H](c3ccc(C(C)(C)C)cc3)N2)cnn1-c1ccccc1  logD (shake-flask, 1-octanol/buffer; pH 7.4): > 4.7
CC(C)C[C@H](NC(=O)[C@@H](Cc1c[nH]c2ccccc12)NC(=O)[C@H](Cc1ccc(O)cc1)NC(=O)[C@H](CO)NC(=O)[C@H](Cc1c[nH]c2ccccc12)NC(=O)[C@H](Cc1c[nH]cn1)NC(=O)[C@@H]1CCC(=O)N1)C(=O)N[C@@H](CCCNC(=N)N)C(=O)N1CCC[C@H]1C(=O)NCC(N)=O  patients, drug-related nocturnal emission (Chinese CPP children, boys; intramuscular, 22.5 mg, 12 months, day 1, month 6): 25%
CC(=O)N[C@H]1CC[C@H](NC(=O)CN2CCN(c3nncc(-c4ccc(C)cc4)n3)CC2)CC1  AUC0-∞ ratio (healthy human, plasma; oral, 100 mg single dose; reference: female over male): 1.2
C=CC(=O)NC1CCN(c2ncc3ncnc(Nc4ccc(Oc5ccc6c(c5)ncn6C)c(C)c4)c3n2)CC1  participants with skin lesion TEAE (healthy male humans; oral, 240 mg, grade 2): 6.3%
C[C@@H](c1ncncc1F)[C@](O)(Cn1cncn1)c1ccc(F)cc1F  grade 3-4 TEAE (human; oral, 200 mg, drug interaction trial): 0%
COc1ccc(C=C2SC(=O)N(C(C)C(=O)O)C2=O)cc1 (stereo not shown)  Kd (Ubiquitin carboxyl-terminal hydrolase 20, ZnF-UBD domain (USP20, Homo sapiens, UniProt Q9Y2K6)): 457 µM
O=C(/C=C/CCc1ccc(O)cc1)/C=C/c1ccc(O)cc1  body weight (nude mouse MCF7 xenograft; 10 mg/kg, day 6): 19.6 ± 1.55 g
O=C(Cn1nc(-c2cccc([N+](=O)[O-])c2)c2ccccc2c1=O)NCC1CCCO1 (stereo not shown)  logD (octanol/buffer; pH 7.4): 2.29
CCc1cc(C(=O)NC)c2nccc(N3CCc4c(cc(Cn5ccnc5)cc4-c4cn(C)nc4C(F)(F)F)C3=O)c2c1  serum HDL level (Sprague Dawley rats; oral, 100 mg/kg once daily, 7 days): 1.3 ± 0.3 mmol/L
CC(C)(C(=O)N1CCOc2c(C#N)cncc2C1)C(F)F  subjects with adverse event (measured: infections and infestations; human; oral, 15 mg twice daily, 14 days, multiple ascending dose): 0%
CC[C@@H]1CN(C(=O)NCC(F)(F)F)C[C@@H]1c1cnc2cnc3[nH]ccc3n12  absorption rate constant (Ka) (population PK modelling; human; oral, immediate-release formulation, outliers re-estimated): 2.75 h⁻¹
CCCCOC(=O)N1CCN(C(=O)[C@H](CP(=O)(O)O)NC(=O)c2cc(N3CC[C@H](OC)C3)nc(-c3ccccc3)n2)CC1  change in PR interval (human; subcutaneous, 16 mg, 1 h post-dose; reference: baseline): 0.2 ± 11.1 ms
O=C1CC[C@H](N2Cc3cc(N4CCN(CC5CCN(c6ccc([C@@H]7c8ccc(O)cc8CC[C@@H]7c7ccccc7)cc6)CC5)CC4)ccc3C2=O)C(=O)N1  participants with adverse event (measured: Myalgia; human; oral, 200 mg, added: dabigatran etexilate 75 mg): 0%
COc1ncc(-c2nc3c(n2C(C)C)[C@H](c2ccc(Cl)cc2)N(c2cc(Cl)cn(C)c2=O)C3=O)c(OC)n1  median Tmax (human patients, plasma; oral, 350 mg, high-dose arm, cycle 1 day 1): 3 h
CC(C)c1c(C(=O)Nc2ccc(O)cc2)c(-c2ccccc2)c(-c2ccc(F)cc2)n1CC[C@@H]1C[C@@H](O)CC(=O)O1  chromatographic hydrophobicity index (reverse phase LC, C18; acetonitrile gradient, 0.1% formic acid; converted from retention time; reference: Valko CHI standards): 85.6
C[C@@H]1CCO[C@H]2Cn3cc(C(=O)NCc4ccc(F)cc4F)c(=O)c(O[C@@H]4O[C@H](C(=O)O)[C@@H](O)[C@H](O)[C@H]4O)c3C(=O)N12  Ctau (human, haemodialysis patients, plasma; dose not given, steady state): 1.2 µg/mL
COc1ccc2c(c1)CN(C(=O)CCN1CCC(Cc3ccccc3)CC1)CC[S@@+]2[O-]  fu (human plasma; 100 ng/mL): 0.115
COc1ccc([C@@H]2COC[C@H](c3ccc(-c4ccccc4)cc3)N2)cc1  logD (shake-flask, 1-octanol/buffer; pH 7.4): > 4.7
Cc1cc(C)c(CNC(=O)c2cc(Cl)c3c(c2C)O[C@@](C)([C@H]2CC[C@H](N(C)C)CC2)O3)c(=O)[nH]1  patients with TEAE (CTCAE v4.0, measured: abdominal pain; human relapsed/refractory NHL; oral, 200 mg once daily, onset after cycle 1 day 1, overall treatment period): 20.8%
CNC(=O)c1cc(Oc2ccc(NC(=O)Nc3cc(C(C)(C)C)nn3-c3ccc4ncccc4c3)c(F)c2)ccn1  patients with visual abnormality AE (measured: worst grade 1; human; oral, dose not given, cycles 1 and 2, Low AUC(0-4 h) subgroup): 20%
NC1(C(=O)N[C@@H](CCO)c2ccc(Cl)cc2)CCN(c2nc[nH]c3nccc2-3)CC1  incidence of blood creatinine increased (metastatic CRPC patients; 320 mg b.i.d., any grade, treatment-related, added: enzalutamide 160 mg daily): 0%
COc1c(N2C[C@@H]3CCCN[C@@H]3C2)c(F)cc2c(=O)c(C(=O)O)cn(C3CC3)c12  subjects with discoloured faeces (healthy volunteers; 400 mg): 3%
O=C[C@H]([18F])[C@@H](O)[C@H](O)[C@H](O)CO  tissue uptake (Kunming mice, turpentine inflammation, brain; intravenous, 0.74 MBq, 60 min): 4.37 ± 0.25 %ID/g
CCC(C)n1ncn(-c2ccc(N3CCN(c4ccc(OCC5COC(Cn6cncn6)(c6ccc(Cl)cc6Cl)O5)cc4)CC3)cc2)c1=O (stereo not shown)  adverse events (healthy human volunteers; oral, 200 mg, event Proteinuria, continued dosing): 27%
N#Cc1ccc2c(c1)[C@H]1CCCN(C(=O)c3ccc4[nH]cnc4c3)[C@H]1C2  minimum ACTH level (human; 360 mg, day 15): 5.1 pmol/L
C=CC(=O)NC1CCN(c2ncc3ncnc(Nc4ccc(Oc5ccc6c(c5)ncn6C)c(C)c4)c3n2)CC1  blood-to-plasma ratio (measured: total radioactivity; healthy male human, whole blood and plasma; oral, 60 mg, 120 h, geometric mean): 2.91
CC(C)(C)c1ccc(O)c(CN(Cc2cc(C(C)(C)C)ccc2O)C2CCC(NC(N)=O)CC2)c1 (stereo not shown)  recovery (human liver microsomes; 2000 ng/mL, time not given, freeze-thaw, 3 cycles, -20 °C): 95.33 ± 0.6%
CN(c1ncco1)c1ncnc2ccc(-c3cccc(N4CCOCC4)c3)cc12  CLint (human liver microsomes): 4.2 µL/min/mg
[O]=[Co].[O]=[Co][O][Co]=[O]  creatinine-corrected cobalt concentration (rat, female, urine, 24-h collection; oral gavage, single, 300 mg/kg (220 mg Co/kg), day 3, vehicle 0.5% HPMC): 0.0266 µg/µmol creatinine
C[C@@H](NC(=O)N1C(=O)[C@H](Cc2ccnc(N)c2)[C@H]1C(=O)O)C1CCCCC1  CL (UPLC-MS/MS; healthy adult Chinese volunteers, plasma; continuous intravenous infusion, 2.25 mg/kg/h, day 6 of 5-day infusion, mean): 4.3 mL/min/kg
CCc1nc(C(N)=O)c(Nc2ccc(N3CCC(N4CCN(C)CC4)CC3)c(OC)c2)nc1NC1CCOCC1  Cmax (Japanese patients, plasma; oral, 40 mg, cycle 1 day 28, multiple doses, median): 158 ng/mL
COc1ccc2c3c([nH]c2c1)[C@H](CC(C)C)N1C(=O)[C@H](CC(=O)NC(C)C)NC(=O)[C@@H]1C3  kidney to body weight ratio (wild-type mouse; oral, 100 mg/kg daily, 23 days): 1.26% and 1.2%
Cc1cc(NC2CCN(C(=O)OC3CCN(C(=O)/C=C/CN(C)C)C3)CC2)n2ncc(C(C)C)c2n1 (stereo not shown)  patients with Headache (patients with advanced solid tumours; dose not given, QD arm, grade 3 or higher): 0%
Cc1ccc([C@@H]2O[C@H](CO)[C@@H](O)[C@H](O)[C@H]2O)cc1Cc1ccc(-c2ccc(F)cc2)s1  urinary chloride excretion change (Japanese type 2 diabetes patients; 100 mg, day 3, 24 h urine collection; reference: baseline): 19.1 mEq
CCOC(=O)N1C[C@@H](C2CCCCC2)N[C@@H](c2ccc(C(C)(C)C)cc2)C1  logD (shake-flask, 1-octanol/buffer; pH 7.4): > 4.7
CC(C)C[C@H](NC(=O)[C@H]1O[C@@H]1C(=O)O)C(=O)NCCCCN=C(N)N  cysteine adduct formation (MES buffer; 100 µM, 23 h, pH 5.5, 37 °C, added: cysteine 10 mM): < 1%
O=C(Nc1nc2cccc(-c3ccc(CN4CCS(=O)(=O)CC4)cc3)n2n1)C1CC1  treatment-emergent adverse events (measured: regurgitation; rheumatoid arthritis patients; oral, 300 mg once daily, 4 weeks, any relatedness): 5%
CCN1/C(=C/C(C)=O)Sc2ccc(F)cc21  heart rate (cynomolgus monkey; oral, 30 mg/kg, 6 h post-dose): 93 ± 27 beats/min

A few entries again:
NC1(C(=O)N[C@@H](CCO)c2ccc(Cl)cc2)CCN(c2nc[nH]c3nccc2-3)CC1  incidence of blood creatinine increased (metastatic CRPC patients; 320 mg b.i.d., any grade, treatment-related, added: enzalutamide 160 mg daily): 0%
O=C(Cn1nc(-c2cccc([N+](=O)[O-])c2)c2ccccc2c1=O)NCC1CCCO1 (stereo not shown)  logD (octanol/buffer; pH 7.4): 2.29
CN(c1ncco1)c1ncnc2ccc(-c3cccc(N4CCOCC4)c3)cc12  CLint (human liver microsomes): 4.2 µL/min/mg
Cc1ccc([C@@H]2O[C@H](CO)[C@@H](O)[C@H](O)[C@H]2O)cc1Cc1ccc(-c2ccc(F)cc2)s1  urinary chloride excretion change (Japanese type 2 diabetes patients; 100 mg, day 3, 24 h urine collection; reference: baseline): 19.1 mEq
COc1cc(C(=O)N2CCC3(CC2)CC(=O)c2c(cnn2C(C)C)C3)cc(-c2ccc(C(=O)O)cc2)n1  placebo-adjusted change from baseline (measured: direct LDL cholesterol; human, fasting serum; 30 mg every 12 h, day 13, adjusted geometric mean; reference: baseline and placebo): -2.2%
